Assay results collected from several papers.
Every numbered part comes from another study and shows a few of its results, in no order.
UniProt Q9UQM7, sequence (whole entry, looked up): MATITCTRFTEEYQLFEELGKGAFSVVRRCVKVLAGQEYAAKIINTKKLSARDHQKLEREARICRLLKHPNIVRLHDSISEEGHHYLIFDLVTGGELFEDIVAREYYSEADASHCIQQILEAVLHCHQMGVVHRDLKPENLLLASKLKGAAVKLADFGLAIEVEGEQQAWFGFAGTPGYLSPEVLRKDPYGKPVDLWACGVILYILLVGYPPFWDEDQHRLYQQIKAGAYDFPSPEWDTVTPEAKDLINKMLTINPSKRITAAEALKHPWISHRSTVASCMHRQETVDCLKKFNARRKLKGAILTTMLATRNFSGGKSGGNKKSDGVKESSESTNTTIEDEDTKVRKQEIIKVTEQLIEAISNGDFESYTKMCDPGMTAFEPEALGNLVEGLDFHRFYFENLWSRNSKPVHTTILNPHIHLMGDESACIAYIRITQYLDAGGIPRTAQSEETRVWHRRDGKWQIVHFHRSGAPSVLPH
UniProt Q6DT37, sequence (whole entry, looked up): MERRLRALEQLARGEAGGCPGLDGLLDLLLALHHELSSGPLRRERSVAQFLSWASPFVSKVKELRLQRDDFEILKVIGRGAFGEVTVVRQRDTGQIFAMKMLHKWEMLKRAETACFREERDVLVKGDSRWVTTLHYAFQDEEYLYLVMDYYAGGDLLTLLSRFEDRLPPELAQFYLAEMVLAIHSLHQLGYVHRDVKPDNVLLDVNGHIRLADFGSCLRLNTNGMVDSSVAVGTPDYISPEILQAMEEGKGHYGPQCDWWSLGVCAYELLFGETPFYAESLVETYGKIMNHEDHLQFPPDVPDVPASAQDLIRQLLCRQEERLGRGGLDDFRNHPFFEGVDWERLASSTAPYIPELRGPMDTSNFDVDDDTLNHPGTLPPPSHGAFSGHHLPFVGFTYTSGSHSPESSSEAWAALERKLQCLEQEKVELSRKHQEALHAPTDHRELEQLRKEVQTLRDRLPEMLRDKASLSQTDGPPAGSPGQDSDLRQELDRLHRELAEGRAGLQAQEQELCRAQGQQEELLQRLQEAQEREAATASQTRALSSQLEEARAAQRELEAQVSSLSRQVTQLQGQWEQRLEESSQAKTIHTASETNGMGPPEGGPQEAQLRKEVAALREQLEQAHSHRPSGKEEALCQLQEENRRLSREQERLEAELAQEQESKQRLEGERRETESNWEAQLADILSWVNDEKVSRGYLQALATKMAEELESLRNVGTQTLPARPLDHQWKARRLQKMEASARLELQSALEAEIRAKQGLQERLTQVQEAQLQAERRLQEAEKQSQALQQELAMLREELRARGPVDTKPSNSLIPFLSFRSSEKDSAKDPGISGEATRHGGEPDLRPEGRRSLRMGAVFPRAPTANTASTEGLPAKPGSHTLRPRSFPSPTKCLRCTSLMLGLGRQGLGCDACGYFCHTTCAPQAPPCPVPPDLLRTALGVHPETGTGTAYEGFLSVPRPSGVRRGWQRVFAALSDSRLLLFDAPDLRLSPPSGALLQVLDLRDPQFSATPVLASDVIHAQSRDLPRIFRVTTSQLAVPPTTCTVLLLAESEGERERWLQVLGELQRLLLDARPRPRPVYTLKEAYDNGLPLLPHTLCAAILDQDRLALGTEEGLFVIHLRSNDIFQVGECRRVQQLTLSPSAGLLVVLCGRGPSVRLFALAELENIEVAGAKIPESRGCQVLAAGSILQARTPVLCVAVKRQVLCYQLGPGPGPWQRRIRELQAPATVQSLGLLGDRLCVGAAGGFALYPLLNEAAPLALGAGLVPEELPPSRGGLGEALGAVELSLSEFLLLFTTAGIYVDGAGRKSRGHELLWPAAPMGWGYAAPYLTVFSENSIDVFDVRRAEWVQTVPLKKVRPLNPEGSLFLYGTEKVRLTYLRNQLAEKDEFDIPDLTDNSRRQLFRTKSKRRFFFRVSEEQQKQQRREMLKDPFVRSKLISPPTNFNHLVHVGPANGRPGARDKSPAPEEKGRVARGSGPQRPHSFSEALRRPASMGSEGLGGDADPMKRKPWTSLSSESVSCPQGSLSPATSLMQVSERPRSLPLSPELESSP
UniProt Q9HCP0, sequence (whole entry, looked up): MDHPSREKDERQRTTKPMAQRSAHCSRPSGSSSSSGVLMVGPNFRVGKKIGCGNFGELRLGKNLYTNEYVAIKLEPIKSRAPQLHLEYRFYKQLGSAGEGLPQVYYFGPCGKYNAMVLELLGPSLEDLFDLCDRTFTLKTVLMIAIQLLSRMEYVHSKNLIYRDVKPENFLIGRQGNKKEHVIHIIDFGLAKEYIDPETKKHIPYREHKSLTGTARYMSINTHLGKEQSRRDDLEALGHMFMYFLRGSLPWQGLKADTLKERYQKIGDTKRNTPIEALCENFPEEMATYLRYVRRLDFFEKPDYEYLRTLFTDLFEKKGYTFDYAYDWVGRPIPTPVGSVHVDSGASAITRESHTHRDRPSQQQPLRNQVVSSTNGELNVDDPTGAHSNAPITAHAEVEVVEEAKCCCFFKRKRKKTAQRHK
UniProt P53671, sequence (whole entry, looked up): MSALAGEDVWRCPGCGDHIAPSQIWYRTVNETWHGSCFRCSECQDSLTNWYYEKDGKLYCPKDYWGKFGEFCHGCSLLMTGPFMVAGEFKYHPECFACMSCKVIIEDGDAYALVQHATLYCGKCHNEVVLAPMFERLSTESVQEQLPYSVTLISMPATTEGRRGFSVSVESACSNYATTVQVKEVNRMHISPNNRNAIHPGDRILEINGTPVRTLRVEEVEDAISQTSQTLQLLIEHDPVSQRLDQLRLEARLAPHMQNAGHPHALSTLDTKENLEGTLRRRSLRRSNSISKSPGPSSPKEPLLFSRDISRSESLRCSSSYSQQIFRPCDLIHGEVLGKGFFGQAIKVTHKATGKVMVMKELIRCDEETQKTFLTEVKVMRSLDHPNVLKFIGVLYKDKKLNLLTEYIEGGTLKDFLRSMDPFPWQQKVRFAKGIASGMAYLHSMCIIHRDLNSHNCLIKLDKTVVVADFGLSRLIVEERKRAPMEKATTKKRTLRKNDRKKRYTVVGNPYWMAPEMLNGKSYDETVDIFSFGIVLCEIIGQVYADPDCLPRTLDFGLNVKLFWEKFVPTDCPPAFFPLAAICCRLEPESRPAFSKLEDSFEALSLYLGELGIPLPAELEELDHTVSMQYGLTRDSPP
UniProt P49841, sequence (whole entry, looked up): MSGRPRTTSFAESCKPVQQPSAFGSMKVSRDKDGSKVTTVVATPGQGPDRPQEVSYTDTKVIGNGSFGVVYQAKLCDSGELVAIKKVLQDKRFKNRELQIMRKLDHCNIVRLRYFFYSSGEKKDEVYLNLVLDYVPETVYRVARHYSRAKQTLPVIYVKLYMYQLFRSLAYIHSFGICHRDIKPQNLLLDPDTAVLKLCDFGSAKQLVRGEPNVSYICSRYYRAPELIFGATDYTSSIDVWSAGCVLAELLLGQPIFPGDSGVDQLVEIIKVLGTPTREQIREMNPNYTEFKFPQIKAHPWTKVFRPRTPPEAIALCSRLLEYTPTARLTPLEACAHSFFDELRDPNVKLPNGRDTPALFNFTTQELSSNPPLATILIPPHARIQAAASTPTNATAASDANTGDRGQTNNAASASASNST
UniProt P37023, sequence (whole entry, looked up): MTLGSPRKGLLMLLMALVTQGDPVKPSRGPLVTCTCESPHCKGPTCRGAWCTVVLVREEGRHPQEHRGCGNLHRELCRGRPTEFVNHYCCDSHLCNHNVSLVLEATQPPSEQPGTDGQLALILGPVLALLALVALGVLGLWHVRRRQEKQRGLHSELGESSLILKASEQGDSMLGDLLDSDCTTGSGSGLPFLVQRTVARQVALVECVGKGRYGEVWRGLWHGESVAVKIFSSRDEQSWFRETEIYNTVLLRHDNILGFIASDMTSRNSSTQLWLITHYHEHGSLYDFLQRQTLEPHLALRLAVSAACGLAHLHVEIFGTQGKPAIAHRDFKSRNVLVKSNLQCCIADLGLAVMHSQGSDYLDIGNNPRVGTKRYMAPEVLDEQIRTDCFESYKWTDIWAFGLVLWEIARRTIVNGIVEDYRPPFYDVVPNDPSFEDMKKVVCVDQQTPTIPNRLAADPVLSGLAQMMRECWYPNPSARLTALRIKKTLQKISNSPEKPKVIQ
UniProt P51817, sequence (whole entry, looked up): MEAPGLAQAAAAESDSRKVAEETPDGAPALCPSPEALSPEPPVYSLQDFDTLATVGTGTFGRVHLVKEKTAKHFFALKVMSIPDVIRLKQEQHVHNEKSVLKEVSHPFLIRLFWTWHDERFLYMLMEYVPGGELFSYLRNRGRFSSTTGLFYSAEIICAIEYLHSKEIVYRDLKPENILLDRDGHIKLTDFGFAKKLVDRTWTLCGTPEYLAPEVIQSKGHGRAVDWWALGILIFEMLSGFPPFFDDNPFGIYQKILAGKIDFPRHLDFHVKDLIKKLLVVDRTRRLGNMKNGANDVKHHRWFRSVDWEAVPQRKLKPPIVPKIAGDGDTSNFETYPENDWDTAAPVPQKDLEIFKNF

Block 1 — tested at: 1 µM
Structure (SMILES): COc1ccc2c(c1)O[C@@H](c1ccc(OC)c(OC)c1)C[C@H]2NC(=O)C1(c2ccc3c(c2)OC(F)(F)O3)CC1
| target | assay | remaining binding [%] |
| --- | --- | --- |
| ANKK1 (Homo sapiens, UniProt Q8NFD2) | cell-free assay, competition with immobilised ligand | 76 |
| ACVRL1 (Homo sapiens, UniProt P37023) | binding, competition with immobilised ligand | 97 |
| FLT3 (Homo sapiens, UniProt P36888, R834Q) | cell-free assay, competition with immobilised ligand | 100 |
| PRKX (Homo sapiens, UniProt P51817) | cell-free assay, competition with immobilised ligand | 83 |
| FGFR3 (Homo sapiens, UniProt P22607, G697C) | cell-free assay, competition with immobilised ligand | 95 |
| FLT3 (Homo sapiens, UniProt P36888, D835H) | cell-free assay, competition with immobilised ligand | 100 |
| GSK3B (Homo sapiens, UniProt P49841) | cell-free assay, competition with immobilised ligand | 92 |
| CDK13 (Homo sapiens, UniProt Q14004) | cell-free assay, competition with immobilised ligand | 98 |
| PIM3 (Homo sapiens, UniProt Q86V86) | cell-free assay, competition with immobilised ligand | 91 |
| Tyrosine-protein kinase ABL1, phosphorylated (ABL1, Homo sapiens, UniProt P00519, Q252H) | cell-free assay, competition with immobilised ligand | 93 |
| CSNK1G1 (Homo sapiens, UniProt Q9HCP0) | cell-free assay, competition with immobilised ligand | 99 |
| PHKG2 (Homo sapiens, UniProt P15735) | cell-free assay, competition with immobilised ligand | 82 |
| CAMK2A (Homo sapiens, UniProt Q9UQM7) | cell-free assay, competition with immobilised ligand | 98 |
| CDC42BPG (Homo sapiens, UniProt Q6DT37) | competition binding | 89 |
| LIM domain kinase 2 (LIMK2, Homo sapiens, UniProt P53671) | cell-free assay, competition with immobilised ligand | 100 |

Block 2 — observed: enzyme activity; action: inhibitor; tested at: 10 µM
Target: Calcium/calmodulin-dependent protein kinase type II subunit alpha (CAMK2A, Homo sapiens, UniProt Q9UQM7)
| SMILES | inhibition [%] |
| --- | --- |
| COn1cc(CC#N)c2ccccc21 | 7 |
| COc1ccc(CCN(C)CCC[C@](C#N)(c2ccc(OC)c(OC)c2)C(C)C)cc1OC | -7 |
| C[C@@H]1O[C@@H](O[C@H]2[C@H](O)[C@@H](O)[C@H](O[C@H]3CC[C@]4(C)[C@H]5C=C[C@]67OC[C@@]8(CCC(C)(C)C[C@H]86)[C@@H](O)C[C@@]7(C)[C@]5(C)CC[C@H]4C3(C)C)O[C@@H]2CO[C@@H]2O[C@H](CO)[C@@H](O)[C@H](O)[C@H]2O)[C@H](O)[C@H](O)[C@H]1O | 8 |
| NC(=O)c1ccccc1O | -4 |
| C=C(C)[C@@H]1CC[C@]2(C(=O)O)CC[C@]3(C)[C@H](CC[C@@H]4[C@@]5(C)CC[C@H](O[C@@H]6OC[C@H](O)[C@H](O)[C@H]6O[C@@H]6O[C@@H](C)[C@H](O)[C@@H](O)[C@H]6O)[C@@](C)(CO)[C@@H]5CC[C@]43C)[C@@H]12 | 4 |
| CC(C)NC[C@H](O)COc1ccc(CCOCC2CC2)cc1 | -4 |
| CC1OCCC1=O (stereo not shown) | -80 |
| O=C(O)C1CCCCC1 | 6 |
| C/C(=C\C(=O)OCCCCCCCCC(=O)O)C[C@@H]1OC[C@H](C[C@@H]2O[C@H]2[C@@H](C)[C@H](C)O)[C@@H](O)[C@H]1O | -7 |

Block 3 — observed: enzyme activity; action: inhibitor; tested at: 0.5 µM; reference: control
Target: Dual specificity protein kinase CLK1 (CLK1, Homo sapiens, UniProt P49759)
Construct (P49759 1-484): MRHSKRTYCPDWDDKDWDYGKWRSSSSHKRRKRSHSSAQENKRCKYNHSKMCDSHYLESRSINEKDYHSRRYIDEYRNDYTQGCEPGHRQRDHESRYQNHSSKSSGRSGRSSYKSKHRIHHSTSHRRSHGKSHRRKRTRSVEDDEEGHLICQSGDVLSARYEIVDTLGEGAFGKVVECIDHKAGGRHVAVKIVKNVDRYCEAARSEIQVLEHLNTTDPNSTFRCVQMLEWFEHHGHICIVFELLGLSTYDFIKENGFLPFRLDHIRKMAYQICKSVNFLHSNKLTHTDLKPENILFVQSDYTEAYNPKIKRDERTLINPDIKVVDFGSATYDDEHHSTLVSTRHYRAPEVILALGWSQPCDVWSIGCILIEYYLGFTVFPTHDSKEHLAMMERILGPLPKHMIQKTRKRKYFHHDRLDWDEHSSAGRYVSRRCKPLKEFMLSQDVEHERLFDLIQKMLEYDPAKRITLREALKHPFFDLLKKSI
| SMILES | remaining activity [%] |
| --- | --- |
| COc1cc2ncnc(Nc3ccc(O)c(Br)c3)c2cc1OC | 77.2 |
| COc1cc2c(cc1OC)-c1[nH]nc(Nc3cccc(F)c3)c1C2 | 102 |
| N#C/C(=C\c1ccc(O)c(O)c1)C(=O)NCc1ccccc1 | 98.5 |
| Cc1cc2ncc(-c3ccccc3)nc2cc1C | 95.4 |
| c1ccc(-c2[nH]ncc2-c2ccnc3ccccc23)nc1 | 106 |
| CCN(CC)CCNC(=O)c1c(C)[nH]c(/C=C2\C(=O)Nc3ccc(Cl)cc32)c1C | 34.2 |
| CN(C)C[C@H]1CCn2c(c(C3=C(c4cn(C)c5ccccc45)C(=O)NC3=O)c3ccccc32)C1 | 105 |
| O=C1c2ccccc2-c2n[nH]c3cccc1c23 | 82.6 |
| O=C1C(Cl)=C(N2C(=O)CCC2=O)C(=O)c2ccccc21 | 103 |
| Ic1cccc(CSc2nnc(-c3ccncc3)o2)c1 | 99.8 |
| O=c1cc(-c2cccc3c2Sc2ccccc2S3)oc(N2CCOCC2)c1 | 103 |
| CCN(CC)C(=O)c1ccc(Nc2nc(OCC3CCCCC3)c3[nH]cnc3n2)cc1 | 74.1 |
| COc1cc2ncnc(Nc3cccc(Cl)c3)c2cc1OC | 103 |
| Nc1cccc(-c2cc3c(Oc4cccc(O)c4)ncnc3[nH]2)c1 | 93 |
| C[C@@H]1CCN(C(=O)CC#N)C[C@@H]1N(C)c1ncnc2[nH]ccc12 | 99.5 |
| CCOc1nc(NC(=O)Cc2cc(OC)ccc2OC)cc(N)c1C#N | 98.1 |
| O=C(NC(NC(=S)Nc1ccc(F)c([N+](=O)[O-])c1)C(Cl)(Cl)Cl)C(c1ccccc1)c1ccccc1 (stereo not shown) | 106 |
| c1ccc(-c2cnc(Nc3ccc(OCCN4CCCC4)cc3)s2)cc1 | 89.4 |
| Cn1nc2c3c(cccc31)C(=O)c1ccccc1-2 | 92.7 |
| O=C(Nc1cccc(Nc2nccc(Nc3cccc(C(F)(F)F)c3)n2)c1)C1CC1 | 102 |
| N#Cc1c(NC(=O)c2cccc3ccccc23)sc2c1CCCC2 | 99.2 |
| Cc1nc2cc3nc(-c4cccs4)cnc3cc2n1C | 111 |

Block 4 — action: inhibitor; tested at: 10 µM; reference: control
Target: Diamine acetyltransferase 1 (Homo sapiens, UniProt P21673)
Construct (P21673 1-171): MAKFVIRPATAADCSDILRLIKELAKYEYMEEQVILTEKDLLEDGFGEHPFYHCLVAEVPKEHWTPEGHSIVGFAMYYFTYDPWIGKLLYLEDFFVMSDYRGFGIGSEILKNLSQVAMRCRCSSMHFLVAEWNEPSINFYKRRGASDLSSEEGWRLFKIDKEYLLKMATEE
| Compound | remaining activity [%] |
| --- | --- |
| CC(=O)OCCC(C)CCC=C(C)C (stereo not shown) | 82.2 |
| O=C1C[C@@H](c2ccc(O)cc2)Oc2cc(O)ccc21 | 91.7 |
| O=C1CC(c2ccc(O)cc2)Oc2cc(O)cc(O)c21 (racemic) | 99.9 |
| C[C@@H]1O[C@@H](O[C@H]2[C@H](O[C@H]3CC[C@@]4(C)[C@@H](CC[C@]5(C)[C@@H]4CC=C4[C@@H]6CC(C)(C)CC[C@]6(C(=O)O)CC[C@]45C)[C@]3(C)CO)OC[C@H](O)[C@@H]2O)[C@H](O)[C@H](O[C@@H]2O[C@H](CO)[C@@H](O[C@@H]3O[C@H](CO)[C@@H](O)[C@H](O)[C@H]3O)[C@H](O)[C@H]2O)[C@H]1O | 117 |
| CCCCCCCC/C=C\CCCCCCCCCCCCCC(=O)O | 95.5 |
| NC(CO)C(=O)O (racemic) | 96.3 |
| C=Cc1ccc(O)c(OC)c1 | 96.9 |
| Cc1cc2nc3c(=O)[nH]c(=O)nc-3n(C[C@H](O)[C@H](O)[C@H](O)CO)c2cc1C | 100 |
| NCCS(=O)(=O)O | 89.6 |
| CC(C)(O)[C@@H]1CC[C@](C)([C@H]2[C@@H](O)C[C@@]3(C)[C@@H]4C[C@H](O[C@@H]5O[C@H](CO)[C@@H](O)[C@H](O)[C@H]5O)[C@H]5C(C)(C)[C@@H](O[C@@H]6OC[C@@H](O)[C@H](O)[C@H]6O)CC[C@@]56C[C@@]46CC[C@]23C)O1 | 87.9 |
| C[C@@H]1OC(O)[C@@H](O)[C@H](O)[C@@H]1O (single isomer, unassigned; (-)) | 112 |
| C[C@H](Cc1ccc(O)c(O)c1)[C@@H](C)Cc1ccc(O)c(O)c1 | 108 |

Some of these lines once more (block 2):
| SMILES | inhibition [%] |
| --- | --- |
| C=C(C)[C@@H]1CC[C@]2(C(=O)O)CC[C@]3(C)[C@H](CC[C@@H]4[C@@]5(C)CC[C@H](O[C@@H]6OC[C@H](O)[C@H](O)[C@H]6O[C@@H]6O[C@@H](C)[C@H](O)[C@@H](O)[C@H]6O)[C@@](C)(CO)[C@@H]5CC[C@]43C)[C@@H]12 | 4 |
| NC(=O)c1ccccc1O | -4 |
| C/C(=C\C(=O)OCCCCCCCCC(=O)O)C[C@@H]1OC[C@H](C[C@@H]2O[C@H]2[C@@H](C)[C@H](C)O)[C@@H](O)[C@H]1O | -7 |
| C[C@@H]1O[C@@H](O[C@H]2[C@H](O)[C@@H](O)[C@H](O[C@H]3CC[C@]4(C)[C@H]5C=C[C@]67OC[C@@]8(CCC(C)(C)C[C@H]86)[C@@H](O)C[C@@]7(C)[C@]5(C)CC[C@H]4C3(C)C)O[C@@H]2CO[C@@H]2O[C@H](CO)[C@@H](O)[C@H](O)[C@H]2O)[C@H](O)[C@H](O)[C@H]1O | 8 |
| COc1ccc(CCN(C)CCC[C@](C#N)(c2ccc(OC)c(OC)c2)C(C)C)cc1OC | -7 |
| CC1OCCC1=O (stereo not shown) | -80 |
| CC(C)NC[C@H](O)COc1ccc(CCOCC2CC2)cc1 | -4 |
| O=C(O)C1CCCCC1 | 6 |
| COn1cc(CC#N)c2ccccc21 | 7 |
